Experimental data gathered from unrelated publications.
A part holds a random share of what one study measured.

Study 1
Target: Interferon regulatory factor 5, full length, phosphomimetic (IRF5, Homo sapiens, UniProt Q13568-2, residues 1-514, S451D/S453D/S456D/S462D)
Technique: protein-binding microarray
Form: double-stranded DNA, one strand shown
Medium: in vitro
Tested at: 940 nM top
Setting: 60-bp whole probe
With: salmon DNA 0.4 mg/ml
Baseline: random background probes
Direction: higher = stronger binding
Measurement: fitted relative affinity
Constant ends, left off below: GCCTAGCAC … GTCTTGATTCGCTTGACGCTGCTG
Oligonucleotide = AGACGAATCATATCAAAATTGTGCTAG; value = -0.0635 z-score
Oligonucleotide = GACGGACTGGGGACTGGCGACGTGCTA; value = -0.403 z-score
Oligonucleotide = GACGGTTTCGGTATCGGGATGTGCTAG; value = 13.1 z-score
Oligonucleotide = TTAGGTTTCCTACTGCTTTAGTGCTAG; value = 0.769 z-score
Oligonucleotide = GACGGTCTCCTTTTCCAGACGTGCTAG; value = 0.845 z-score

Study 2
Target: Histone acetyltransferase KAT6A, winged helix 2, GST fusion (KAT6A, Homo sapiens, UniProt Q92794, residues 85-181)
Technique: protein binding microarray
Form: double-stranded DNA, one strand shown
Medium: in vitro
Tested at: not given
Setting: 8-mer, flanks averaged, mean of 2 arrays, mostly near background
Baseline: not given
Direction: higher = stronger binding
Measurement: E-score
Target sequence (chain): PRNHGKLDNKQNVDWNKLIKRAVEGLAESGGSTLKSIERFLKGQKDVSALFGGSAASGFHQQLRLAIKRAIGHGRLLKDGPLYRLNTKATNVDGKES
Oligonucleotide = GCACACGA; value = 0.0891
Oligonucleotide = CGAGAGCC; value = 0.0819
Oligonucleotide = ATCATCGA; value = 0.0403
Oligonucleotide = CCTTATGA; value = -0.0222
Oligonucleotide = AAGGTTTG; value = -0.00517

Study 3
Target: Protein C-ets-1 (ETS1, Homo sapiens, UniProt P14921, residues 1-441, full length assumed)
UniProt P14921, sequence (whole entry, looked up): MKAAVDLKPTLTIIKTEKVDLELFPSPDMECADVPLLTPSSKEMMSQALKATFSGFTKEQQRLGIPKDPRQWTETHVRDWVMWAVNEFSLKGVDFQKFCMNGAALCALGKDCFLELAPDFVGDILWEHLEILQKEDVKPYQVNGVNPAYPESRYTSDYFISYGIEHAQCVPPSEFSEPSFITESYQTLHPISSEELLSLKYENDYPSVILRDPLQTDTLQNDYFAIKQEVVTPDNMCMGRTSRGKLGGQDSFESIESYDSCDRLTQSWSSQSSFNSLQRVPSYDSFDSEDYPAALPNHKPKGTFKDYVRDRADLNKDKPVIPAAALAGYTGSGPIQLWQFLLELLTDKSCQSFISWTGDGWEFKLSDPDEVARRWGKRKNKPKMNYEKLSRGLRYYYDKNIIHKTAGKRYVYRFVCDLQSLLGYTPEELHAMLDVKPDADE
Technique: protein-binding microarray
Form: double-stranded DNA, one strand shown
Medium: in vitro
Tested at: not given
Setting: k-mer, scored over probes, only values ≥0.25
Direction: higher = stronger binding
Measurement: E-score
Oligonucleotide = GTTTCCGA; value = 0.416
Oligonucleotide = GGAGCGGA; value = 0.378
Oligonucleotide = CGCAGGAA; value = 0.417
Oligonucleotide = GCCCTTCC; value = 0.369
Oligonucleotide = ACGGAAGA; value = 0.405

Further values, each from its own experiment
Substance = PhoQ, residues 284 288 289 292 302 303 SQSLSM; target = PhoP, residues 12 14 15 18 19 NIMAP (Escherichia coli, UniProt P23836); test = Sort-seq, item: YFP reporter; system = E. coli; conditions = PhoQ-PhoP variant library, with: 10 µM Mg2+; scale = baseline: high Mg2+ state, higher = stronger signaling; measurement = fold induction; value = 0.359

Excerpt of the above (study 3):
Oligonucleotide = CGCAGGAA; value = 0.417
